Earlier results that unrelated publications cite.
Lines come from different studies, so protocols differ. “And” joins repeats or separate records; there may be more than shown. ± gives the spread as reported.

COc1ccc(NC(=O)N2CCCCN3[C@H](CN(C)C)[C@H](c4ccc(C#Cc5ccccc5)cc4)[C@@H]3C2)cc1 — EC50 (Toxoplasma gondii; parasite growth; RH PheRS L497I-FLuc): 1170 nM
COc1cc(/C=C2\CCC/C(=C\c3ccc(O)c(OC)c3)C2=O)ccc1O — EC50 (dengue virus; viral replication, replicon): 8070 ± 1520 nM
C=C[C@@H]1C[C@]1(NC(=O)[C@@H]1C[C@@H](Oc2cc(-c3ccccc3)nc3cc(OC)ccc23)CN1C(=O)[C@@H](NC(=O)OC(C)(C)C)C(C)(C)C)C(=O)O — EC50 (hepatitis C virus; replicon replication; genotype 1b): 550 nM
C1CCCCCC2(CCCCC1)OOCCCOO2 — EC50 (hepatitis C virus; viral RNA replication; Huh-7): 25 to 660 nM
C=C[C@@H]1C[C@]1(NC(=O)[C@@H]1C[C@@H](Oc2nccc3c(OC)cccc23)CN1C(=O)[C@@H](NC(=O)OC(C)(C)C)C(C)(C)C)C(=O)NS(=O)(=O)C1CC1 — EC50 (hepatitis C virus; replicon replication; genotype 1b): 19 nM and 25 nM
Cc1cc(O)c(=O)c(O)cc1C(=O)c1ccc(-c2ccccc2)cc1 — EC50 (herpes simplex virus 1; viral replication): 120 nM
O=C(O)c1cn(Cc2ccc(F)cc2)cc(O)c1=O — EC50 (human cytomegalovirus; viral replication; AD169 GFP reporter): 10000 nM
C=C[C@@H]1C[C@]1(NC(=O)[C@@H]1C[C@@H](Oc2ncc(OC)c3c(Cl)cccc23)CN1C(=O)[C@@H](NC(=O)OC(C)(C)C)C(C)(C)C)C(=O)NS(=O)(=O)C1CC1 — EC50 (hepatitis C virus; replicon replication; genotype 1b): 9 nM
O=C(NCc1ccc(F)cc1F)c1cn2c(c(O)c1=O)C(=O)N(CCCCCO)CC2 — EC50 (human immunodeficiency virus 1; single-round vector infection; wild-type integrase): 54.5 ± 3 nM
CC(C)(C)n1ncc(C(=O)N/N=C/c2ccc(F)cc2)c1N — EC50 (tobacco mosaic virus; curative activity; plant): 139 µg/mL
O=C1[C@@H]2CCCN2[C@@H](c2ccc([N+](=O)[O-])cc2)N1c1ccc([N+](=O)[O-])cc1 — EC50 (dengue virus 2; viral replication): 39400 ± 6200 nM
C=C[C@@H]1C[C@]1(NC(=O)[C@@H]1C[C@@H](Oc2cc(-c3ccccc3)nc3cc(OC)ccc23)CN1C(=O)[C@@H](NC(=O)OC(C)(C)C)C(C)(C)C)C(=O)NS(=O)(=O)c1ccccc1 — EC50 (hepatitis C virus; replicon replication; genotype 1b): 20 nM
Cn1ccn2cc(C(=O)NCc3ccc(F)cc3F)c(=O)c(O)c2c1=O — EC50 (human immunodeficiency virus 1; single-round vector infection; wild-type integrase): 2.7 ± 0.2 nM
COc1cc2ccc(-c3nc4ccccc4n3Cc3ccccc3Cl)c(OC)c2c(OC)c1OC — EC50 (Zika virus; viral replication; African strain): 1900 nM
O=[N+]([O-])c1ccc(-c2nc3cc4cccnc4c(Cl)c3[nH]2)cc1 — EC50 (hepatitis C virus; viral replication): 3100 nM
CN1CCn2cc(C(=O)NCc3ccc(F)cc3F)c(=O)c(O)c2C1=O — EC50 (human immunodeficiency virus 1; single-round vector infection; wild-type integrase): 4.6 ± 0.7 nM
C=C[C@@H]1C[C@]1(NC(=O)[C@@H]1C[C@@H](Oc2cc(-c3ccccc3)nc3cc(OC)ccc23)CN1C(=O)[C@@H](NC(=O)OC(C)(C)C)C(C)(C)C)C(=O)NS(=O)(=O)C1(C)CC1 — EC50 (hepatitis C virus; replicon replication; genotype 1b): 8 nM
COCCCCCCn1ccn2cc(C(=O)NCc3ccc(F)cc3F)c(=O)c(O)c2c1=O — EC50 (human immunodeficiency virus 1; single-round vector infection; wild-type integrase): 4.8 ± 0.2 nM
O=c1cc(Cc2ccc(-c3ccccc3)cc2)c2cccnc2n1O — EC50 (HIV-1 HXB2; viral replication; HeLa P4-2): 34000 nM
COCCCCCCN1CCn2cc(C(=O)NCc3ccc(F)cc3F)c(=O)c(O)c2C1=O — EC50 (human immunodeficiency virus 1; single-round vector infection; wild-type integrase): 4.6 ± 0.4 nM
Cc1cc(N2CC[C@@](C#N)(C3(C)CC3)C2=O)cc(C(=O)NCc2cc(F)cc(-c3cnn(C)c3)c2)n1 — EC50 (Toxoplasma gondii; PRS T592S mutant): 76 nM
COCCn1ccn2cc(C(=O)NCc3ccc(F)cc3F)c(=O)c(O)c2c1=O — EC50 (human immunodeficiency virus 1; single-round vector infection; wild-type integrase): 1.9 ± 0.4 nM
CC1(C)N=C(N)N=C(N)N1c1cccc(C(F)(F)F)c1 — EC50 (respiratory syncytial virus; viral replication): ~8 nM
COCCN1CCn2cc(C(=O)NCc3ccc(F)cc3F)c(=O)c(O)c2C1=O — EC50 (human immunodeficiency virus 1; single-round vector infection; wild-type integrase): 3.9 ± 0.5 nM
CC1(C)N=C(N)N=C(N)N1c1cccc(Cl)c1 — EC50 (respiratory syncytial virus; viral replication): ~8 nM
CC(C)N1CCn2cc(C(=O)NCc3ccc(F)cc3F)c(=O)c(O)c2C1=O — EC50 (human immunodeficiency virus 1; single-round vector infection; wild-type integrase): 3 ± 0.1 nM
COC(=O)N[C@H](C(=O)N1CCC[C@H]1c1ncc(-c2ccc(-c3ccc(-c4cnc([C@@H]5CC6(CN5C(=O)[C@@H](NC(=O)OC)C(C)C)OCCO6)[nH]4)cc3)cc2)[nH]1)C(C)C — EC50 (hepatitis C virus; replicon; genotype 1b): 0.011 nM

For quick reference, copied from above:
O=C(NCc1ccc(F)cc1F)c1cn2c(c(O)c1=O)C(=O)N(CCCCCO)CC2 — EC50 (human immunodeficiency virus 1; single-round vector infection; wild-type integrase): 54.5 ± 3 nM
CC(C)(C)n1ncc(C(=O)N/N=C/c2ccc(F)cc2)c1N — EC50 (tobacco mosaic virus; curative activity; plant): 139 µg/mL
